# Experimental data from different studies.
# Each numbered part is a random draw from the data of one study; scales do not carry over between parts. Positions count from the first letter of the parent shown.

# Sample 1
# Target: RNA binding protein fox-1 homolog 2, RRM domain, GST-SBP tag (RBFOX2, Homo sapiens, UniProt O43251-10, residues 100-194)
# Method: RNA Bind-n-Seq
# Molecule type: RNA
# Matrix: in vitro
# Concentration: 365 nM
# Notes: natural RNA segment, single round, ends assumed
# Baseline: no-protein control
# Reading: higher = stronger binding
# Construct (chain): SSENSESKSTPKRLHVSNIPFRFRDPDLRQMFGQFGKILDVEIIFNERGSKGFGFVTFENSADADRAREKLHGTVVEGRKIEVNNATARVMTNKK
Sequence,RBNS enrichment (R)
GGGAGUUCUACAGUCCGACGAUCGCAGUGAGCCCAGAGUGGAUUGGCAUUAAACUGGCUGCUUUGACACACCUCAUCUCACCCAAGAGUAUUUCCCAAGUCUGCAGCUUCCGUCAGCGAUUGUUGUGUUACCUUGGAAUUCUCGGGUGCCAA,0.232
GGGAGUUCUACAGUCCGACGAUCGCAUAGGAGUCCGUCUGUCUUUGGACUGUCUCCUCUGCUGUUGUUCCUGCUCUCUCCGUUUCUGUCUAGAUGUCAGGAAAAGGUUUAAUGUUUAAUAUUUAAACAAAAUAUGGAAUUCUCGGGUGCCAA,0.214
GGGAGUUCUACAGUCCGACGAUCUGGCCCUCAGAUCCUUAGUAUUGUGUGAUUUUCCCCCGUUAACAUGUCUUUCUAAAAUUGUCUAUUAAAGCAGAGGAAAUACCUGCCAAAGGAAGUAUGUAUUGCAUUAAUGGAAUUCUCGGGUGCCAA,0.711
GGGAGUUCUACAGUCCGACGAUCCUGUUAAAUUGAACGUAAAUAACUUUGGAAAACAGUUUUGACACUAGAACAAGGUCGCUUCUCUUUUCCUCUUCUCUCCCAACCUGUUAACCUAGUGCUAGAUAGUCAGCUGGAAUUCUCGGGUGCCAA,0.457
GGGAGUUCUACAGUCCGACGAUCCCACCAGAACAAAACCUGUUAAUUCAGCUUGACUUCUCAUAUGUGUUCUGUGUUCAAGCUCCUGUGGGCAACUCAAUUGUUUUAAGAAAACUCUAUUUCUGUUCAUAUUAUGGAAUUCUCGGGUGCCAA,0.46
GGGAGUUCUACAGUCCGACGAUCUGCUGCCAUUUGUAUUCAGCUGAAGAAGUCACUAUUGUGUAUAUACUCAAGGCUUCUUAUUUUUCUUCUUUUCUAAAUGCUCUUGGACAUUAUUGGGCUUGCAGAGUUCCUGGAAUUCUCGGGUGCCAA,0.535
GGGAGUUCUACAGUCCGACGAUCUUAUGAUAUCUUCCAGUUUUUGCUUUCAUAGGUCAGAGAUCUAUCUUGUGUGUGCGUUAGACUUGAUGAGAAGGUGUGAACUCUGCAGAAAGUCUCUUCUUCAUCACUGAUGGAAUUCUCGGGUGCCAA,1.08
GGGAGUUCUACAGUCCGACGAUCCGCUGGGCAUCUCUCCUCUGUGGCUCUAGGACAUCUGUCCAGGAGGCUGGGCGGAGGUGGGCAGGAUGUGAGAGGUGGGGAGUACUGGCUGUGCGUGGCAGGACAGAAGCUGGAAUUCUCGGGUGCCAA,0.746
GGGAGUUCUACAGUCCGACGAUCGAAACGUGUCCCUGGCCCAUAUUAAUCCCUCGUGUGUCCAUAAUUAGGGUCCACGCCCAUGUACCUGAAACAUUUGGAAGCCCCAUAAUUGUUCUAGUUAGAAAGGGUUCUGGAAUUCUCGGGUGCCAA,0.229
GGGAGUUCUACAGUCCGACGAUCUUCACACAGUAUUUCUUUAGGAUGCUGUGAUGAUUUGAAUUACAAAUCCUACAGUCAAUAGCUAAAGACGAAACCUUCAUUUCAGAACUCUCAUGAAUAUUCUUUAAGUGUGGAAUUCUCGGGUGCCAA,0.308
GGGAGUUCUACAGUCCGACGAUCAAGUCAAAAUUUAAUAUUGGUUCUUUAACUGAAAUAUUUAAUUGAGCACUUACAUCUCUAUUGCUUUAACAGAAGGAUACUACUUCAGGAAAAUAUAUGUAAUAUGUAAAUGGAAUUCUCGGGUGCCAA,0.42
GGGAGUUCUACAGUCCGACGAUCCCCAAGGGGUGACCCUGCCCCUCAAAUUCAUGGUGUCCCCACCGUCUCAAUGUGAAUAGUCUCAGAGCUCUGUGCACAGAGAGGACAGUGGCCACAACACAUAAGGUGCCUGGAAUUCUCGGGUGCCAA,0.362

# Sample 2
# Target: PABPC1L2, full length, GST fusion (mouse, UniProt A0ABA7IW68)
# Method: RNAcompete
# Molecule type: RNA
# Matrix: in vitro
# Concentration: 20 nM
# Notes: 7-mer, probes averaged, single round
# Baseline: mean of 7-mers
# Reading: higher = stronger binding
# Construct (chain): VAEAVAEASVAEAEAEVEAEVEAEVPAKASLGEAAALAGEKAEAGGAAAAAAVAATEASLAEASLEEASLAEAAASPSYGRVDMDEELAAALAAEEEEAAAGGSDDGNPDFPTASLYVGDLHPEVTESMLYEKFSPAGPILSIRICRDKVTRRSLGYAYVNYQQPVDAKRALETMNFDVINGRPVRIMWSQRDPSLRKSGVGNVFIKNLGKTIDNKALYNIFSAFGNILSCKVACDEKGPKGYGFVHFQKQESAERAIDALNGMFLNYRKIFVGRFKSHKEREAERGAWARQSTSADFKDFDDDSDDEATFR
Sequence,7-mer Z-score
ACGUUUC,-0.396
GUCACUG,-0.28
GUCCUUU,-0.249
AUAACAA,0.477
CCCCUGG,-0.398
UUUGUGA,-0.273
GAGUUGC,-0.191
ACGACUA,0.1
GCCGCAU,-0.186
CUCGCCU,-0.354
CCCACGG,-0.262
AUGUACU,-0.0627
CAAGGCC,-0.161
UUUCCUA,-0.287
AUUGAUC,-0.142
GAUCGGA,-0.0428
AGGGAAU,0.129
AUGGCGU,-0.0428
GUGUUAC,-0.251
AAAUGUG,0.916
GAAAAUG,2.9

# Sample 3
# Target: Interferon regulatory factor 5, full length, phosphomimetic (IRF5, Homo sapiens, UniProt Q13568-2, residues 1-514, S451D/S453D/S456D/S462D)
# Method: protein-binding microarray
# Molecule type: double-stranded DNA, one strand shown
# Matrix: in vitro
# Concentration: 940 nM top
# Notes: 60-bp whole probe
# Added: salmon DNA 0.4 mg/ml
# Baseline: random background probes
# Reading: higher = stronger binding
# Shared flanks, not repeated: GCCTAGCAC … GTCTTGATTCGCTTGACGCTGCTG
Sequence,fitted relative affinity
GACGGTTTCGACTTTGGGGACGTGCTA,7.34 z-score
GCACTTTTCCCCCTAGTTGTGTGCTAG,1.4 z-score
TTAGATATCAGTTTCGAGTAGTGCTAG,4.22 z-score
GACGGTATCGACTTTCGTGACGTGCTA,4.13 z-score
TCATTAATCACATATACAACTGTGCTA,1.09 z-score
CTTTTTTTGGTAATAGTGAAGTGCTAG,0.418 z-score
TCACCAATGGTCTTTCCAACTGTGCTA,0.0416 z-score
TTAGATTTCAGTCTCGACTAGTGCTAG,2.42 z-score
TTAGAACTGGGGAGTGGATTAGTGCTA,0.0774 z-score
GACGATATCGACACTGGGGACGTGCTA,0.127 z-score
TGTTTCCTCTTTCTTTGCTTGTGCTAG,2.29 z-score
TTAGATATCAGGACTGGATTAGTGCTA,-0.401 z-score
TCATGTTTGATCTTGATACTGTGCTAG,0.372 z-score
TTAGATATCAGTCTCGATTAGTGCTAG,3.37 z-score
TTAGATTCCAGTTACGATTAGTGCTAG,0.636 z-score
TGAGATTTCGGGTATCGATTAGTGCTA,3.8 z-score
GACGAACTGGACACTGGGGACGTGCTA,-0.398 z-score
TTAGGGTTCGACTTTCGGTTAGTGCTA,3 z-score
CCTCATCTTCCTCTGCCACAGTGCTAG,1.32 z-score
GAAGGTTTCGGGACTGGGGACGTGCTA,5.84 z-score
ACACTACCTGACTTCAAACTGTGCTAG,0.782 z-score
TCATGTCTGGGATGTAATACTGTGCTA,0.0644 z-score
AGACATGACACCACTCCTGAGTGCTAG,0.135 z-score
TCACCTTTATGTACTCTCACTGTGCTA,1.75 z-score
TCAGGTCTGGGTATTTTACTGTGCTAG,-0.5 z-score

# Sample 4
# Target: CCNA2, cyclin fold, Cln2 fusion (human)
# Method: yeast growth competition, sequencing
# Matrix: yeast
# Notes: strong parent motif
# Baseline: not given
# Reading: higher = stronger binding
# Parent: INSM1 docking peptide (human); PKAIRKLHFEDEV; partner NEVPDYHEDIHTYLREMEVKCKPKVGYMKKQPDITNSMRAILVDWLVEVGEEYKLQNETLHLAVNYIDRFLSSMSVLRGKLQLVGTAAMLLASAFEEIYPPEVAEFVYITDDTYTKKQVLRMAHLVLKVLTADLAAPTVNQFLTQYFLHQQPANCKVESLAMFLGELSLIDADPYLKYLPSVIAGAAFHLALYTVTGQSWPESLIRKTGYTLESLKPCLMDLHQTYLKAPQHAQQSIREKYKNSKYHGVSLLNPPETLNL
Substitution,normalised enrichment score
PKAIRKLSFEDEV [H8S],4.9
PKASRKLHFEDEV [I4S],5.79
PKAIRKEHFEDEV [L7E],0.0298
PKAIRNLHFEDEV [K6N],1.83
PKAIRKLHFEDLV [E12L],5.28
PKAIRKLHFEDDV [E12D],5.5
PKAIRWLHFEDEV [K6W],1.07
PKANRKLHFEDEV [I4N],5.17
PKARRKLHFEDEV [I4R],6.73
PKAIRKSHFEDEV [L7S],0.0461
PKAIRKLHFKDEV [E10K],4.24
PKAIRKLVFEDEV [H8V],5.87
PKAIRKLAFEDEV [H8A],4.69
PKAIRKLHYEDEV [F9Y],3.48
PKAIRCLHFEDEV [K6C],4.73
PKAIRKLHFCDEV [E10C],4.84
PKAPRKLHFEDEV [I4P],4.11
PKAIRKLCFEDEV [H8C],6.08
PKAIRKLHFVDEV [E10V],4.33
PKAIRKLHFNDEV [E10N],4.75
PYAIRKLHFEDEV [K2Y],3.59
PKAIRKIHFEDEV [L7I],2.94
PKHIRKLHFEDEV [A3H],4.18
PKAIRKLHFTDEV [E10T],5.12
PKAILKLHFEDEV [R5L],0.847

# Sample 5
# Target: ABI1, truncated, D143A, DHFR fusion (Arabidopsis thaliana)
# Method: DHFR PCA, deep sequencing
# Matrix: yeast
# Notes: methotrexate growth selection, single substitutions
# Added: (+)-ABA 58 µM
# Baseline: wild-type fitted maximum
# Reading: higher = stronger binding
# Parent: PYL1, truncated, DHFR fusion (Arabidopsis thaliana); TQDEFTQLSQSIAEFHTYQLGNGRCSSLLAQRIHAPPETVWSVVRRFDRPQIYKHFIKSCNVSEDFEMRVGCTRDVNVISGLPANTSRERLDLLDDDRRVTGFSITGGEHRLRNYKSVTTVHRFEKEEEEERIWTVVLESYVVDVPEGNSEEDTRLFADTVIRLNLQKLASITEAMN
Substitution,relative binding score [%]
S63T,82.7
I105N,23.2
I172K,53.2
Q7Y,97.5
R155D,-0.445
E152V,76.5
S171A,86.8
T173V,83.9
W41G,-2.67
I172C,67.2
C72W,60
R113V,90.7
N85K,89.8
I172P,-0.438
A30M,100
S59D,84
K126I,96.2
D96I,24.4

# Sample 6
# Target: FOSB, bZIP domain (human)
# Method: DHFR protein complementation
# Matrix: yeast
# Notes: single substitutions, most at no-binding floor
# Baseline: wild-type JUN-FOS pair
# Reading: higher = stronger binding
# Parent: JUN, bZIP domain (human); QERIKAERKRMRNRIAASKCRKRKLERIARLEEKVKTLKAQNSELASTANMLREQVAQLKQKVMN; partner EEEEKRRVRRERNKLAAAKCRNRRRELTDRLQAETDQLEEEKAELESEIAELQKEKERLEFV
Substitution,binding fitness [natural log]
T37M,0.308
L31W,-0.368
K34C,-0.229
L31V,-0.708
N42F,-0.965
L45H,-0.965
N42W,-1.02
S47M,-0.104
Q55N,-0.495
A46G,-0.378
E32D,-0.177
S47Q,-0.0644
L38I,-0.689
V35Y,-0.374
L31D,-0.702
L59H,-0.996

# Repeated from above (sample 2):
Sequence,7-mer Z-score
GUCCUUU,-0.249
GUCACUG,-0.28
AAAUGUG,0.916
AUUGAUC,-0.142
AUGUACU,-0.0627
UUUCCUA,-0.287
GCCGCAU,-0.186
GAGUUGC,-0.191
GUGUUAC,-0.251
AUGGCGU,-0.0428
CCCACGG,-0.262
GAUCGGA,-0.0428
